Literature values, collected from citations in different studies.
Compare with care: the assays were run in different laboratories. ± marks the error that the study gave.
Matrix protein 2: Matrix protein 2 (Influenza A virus, UniProt P0DOF5)
UniProt P0DOF5, sequence (whole entry, looked up): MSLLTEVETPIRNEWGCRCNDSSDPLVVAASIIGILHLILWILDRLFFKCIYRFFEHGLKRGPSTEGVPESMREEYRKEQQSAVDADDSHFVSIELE
ribH: 6,7-dimethyl-8-ribityllumazine synthase (ribH, Mycobacterium tuberculosis, UniProt P9WHE9)
UniProt P9WHE9, sequence (whole entry, looked up): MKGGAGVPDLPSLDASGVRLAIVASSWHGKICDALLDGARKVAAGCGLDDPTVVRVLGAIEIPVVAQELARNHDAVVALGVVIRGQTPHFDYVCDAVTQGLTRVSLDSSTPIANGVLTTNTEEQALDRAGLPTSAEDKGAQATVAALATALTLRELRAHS
UniProt P33535, sequence (whole entry, looked up): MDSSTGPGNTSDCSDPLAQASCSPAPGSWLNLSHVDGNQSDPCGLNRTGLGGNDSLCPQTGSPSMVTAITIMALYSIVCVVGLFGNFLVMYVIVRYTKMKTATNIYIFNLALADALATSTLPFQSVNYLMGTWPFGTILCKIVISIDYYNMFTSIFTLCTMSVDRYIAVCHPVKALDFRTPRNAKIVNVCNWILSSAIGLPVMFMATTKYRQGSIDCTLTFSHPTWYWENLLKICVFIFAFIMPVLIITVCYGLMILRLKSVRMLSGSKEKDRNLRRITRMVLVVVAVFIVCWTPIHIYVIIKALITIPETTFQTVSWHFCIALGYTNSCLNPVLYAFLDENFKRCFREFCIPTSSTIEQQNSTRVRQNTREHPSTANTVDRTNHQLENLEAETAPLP
UniProt P35372, sequence (whole entry, looked up): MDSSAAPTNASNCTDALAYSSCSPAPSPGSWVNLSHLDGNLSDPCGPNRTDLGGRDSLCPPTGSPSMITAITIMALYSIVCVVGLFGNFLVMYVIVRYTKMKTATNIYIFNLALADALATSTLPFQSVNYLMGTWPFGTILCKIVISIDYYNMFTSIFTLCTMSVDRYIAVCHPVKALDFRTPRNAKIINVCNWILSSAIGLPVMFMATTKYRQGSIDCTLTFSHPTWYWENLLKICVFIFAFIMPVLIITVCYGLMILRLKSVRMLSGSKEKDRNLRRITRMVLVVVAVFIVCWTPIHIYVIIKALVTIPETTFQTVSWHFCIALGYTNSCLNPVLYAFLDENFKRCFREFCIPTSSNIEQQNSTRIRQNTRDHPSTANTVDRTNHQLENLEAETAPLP
UniProt P41145, sequence (whole entry, looked up): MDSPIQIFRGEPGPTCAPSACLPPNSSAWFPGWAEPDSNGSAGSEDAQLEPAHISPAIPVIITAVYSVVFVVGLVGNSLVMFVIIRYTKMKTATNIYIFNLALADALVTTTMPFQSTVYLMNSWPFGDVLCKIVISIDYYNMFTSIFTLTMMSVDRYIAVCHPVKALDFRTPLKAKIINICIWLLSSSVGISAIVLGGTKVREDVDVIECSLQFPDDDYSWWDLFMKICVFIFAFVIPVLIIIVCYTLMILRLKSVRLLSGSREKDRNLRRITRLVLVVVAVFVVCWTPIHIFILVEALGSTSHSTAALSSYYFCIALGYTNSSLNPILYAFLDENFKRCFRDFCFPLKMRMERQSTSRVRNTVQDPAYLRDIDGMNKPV
UniProt P42866, sequence (whole entry, looked up): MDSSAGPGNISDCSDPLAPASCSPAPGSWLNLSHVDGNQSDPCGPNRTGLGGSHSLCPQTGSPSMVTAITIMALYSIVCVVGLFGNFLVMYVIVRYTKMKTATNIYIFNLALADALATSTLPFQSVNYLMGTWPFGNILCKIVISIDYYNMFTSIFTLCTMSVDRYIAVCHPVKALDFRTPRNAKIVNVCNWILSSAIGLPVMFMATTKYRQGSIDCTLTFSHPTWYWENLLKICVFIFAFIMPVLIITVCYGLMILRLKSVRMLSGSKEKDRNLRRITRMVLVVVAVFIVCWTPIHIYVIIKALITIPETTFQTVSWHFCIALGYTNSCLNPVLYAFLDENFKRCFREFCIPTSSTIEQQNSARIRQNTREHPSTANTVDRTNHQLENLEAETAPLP
UniProt Q2M2I8, sequence (whole entry, looked up): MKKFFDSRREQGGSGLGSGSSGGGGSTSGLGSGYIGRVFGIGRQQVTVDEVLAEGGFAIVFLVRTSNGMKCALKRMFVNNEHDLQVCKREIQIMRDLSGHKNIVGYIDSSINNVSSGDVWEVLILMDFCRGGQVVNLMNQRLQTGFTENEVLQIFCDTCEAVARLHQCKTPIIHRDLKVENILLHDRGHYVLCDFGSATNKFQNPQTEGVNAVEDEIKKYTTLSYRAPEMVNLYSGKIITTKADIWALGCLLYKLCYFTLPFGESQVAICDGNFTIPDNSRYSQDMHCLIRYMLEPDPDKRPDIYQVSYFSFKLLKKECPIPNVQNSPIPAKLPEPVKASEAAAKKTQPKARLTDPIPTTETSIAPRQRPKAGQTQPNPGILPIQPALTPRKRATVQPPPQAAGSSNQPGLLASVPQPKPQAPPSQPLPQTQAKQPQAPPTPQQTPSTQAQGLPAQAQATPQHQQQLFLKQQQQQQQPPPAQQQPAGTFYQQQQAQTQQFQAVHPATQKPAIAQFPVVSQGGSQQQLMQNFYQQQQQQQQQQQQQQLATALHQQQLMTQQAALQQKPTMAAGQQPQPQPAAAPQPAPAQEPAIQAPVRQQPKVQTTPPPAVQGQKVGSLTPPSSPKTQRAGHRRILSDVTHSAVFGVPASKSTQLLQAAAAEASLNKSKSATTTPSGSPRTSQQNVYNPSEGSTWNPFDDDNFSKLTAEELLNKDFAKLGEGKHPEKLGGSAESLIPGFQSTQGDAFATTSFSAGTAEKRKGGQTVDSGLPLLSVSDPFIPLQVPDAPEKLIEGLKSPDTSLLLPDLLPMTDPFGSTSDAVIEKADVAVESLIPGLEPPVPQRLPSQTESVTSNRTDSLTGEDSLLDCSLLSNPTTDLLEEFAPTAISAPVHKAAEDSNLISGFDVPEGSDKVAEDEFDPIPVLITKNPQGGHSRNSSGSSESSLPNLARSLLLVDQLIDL
UniProt P46098, sequence (whole entry, looked up): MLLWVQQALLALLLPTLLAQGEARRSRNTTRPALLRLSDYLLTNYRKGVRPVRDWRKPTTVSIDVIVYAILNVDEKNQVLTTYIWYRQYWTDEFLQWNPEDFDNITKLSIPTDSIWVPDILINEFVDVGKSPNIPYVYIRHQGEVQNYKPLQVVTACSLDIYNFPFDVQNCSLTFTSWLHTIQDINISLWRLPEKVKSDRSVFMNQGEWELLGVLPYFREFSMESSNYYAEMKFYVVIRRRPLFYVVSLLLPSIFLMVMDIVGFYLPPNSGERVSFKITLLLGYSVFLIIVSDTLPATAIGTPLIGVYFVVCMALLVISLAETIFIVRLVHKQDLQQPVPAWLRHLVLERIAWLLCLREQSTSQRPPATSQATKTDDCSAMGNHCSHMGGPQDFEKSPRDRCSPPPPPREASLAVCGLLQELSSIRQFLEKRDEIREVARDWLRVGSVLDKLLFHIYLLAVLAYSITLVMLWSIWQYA

SMILES	target	assay	test system	conditions	how to read	quantity	value
CNCC12C3CCC4C3C3C(CCC31)C42	Matrix protein 2	inhibitor		100 µM		inhibition	15 ± 2%
CCOC(=O)C(=O)Nc1c(NC[C@H](O)[C@H](O)[C@H](O)CO)[nH]c(=O)[nH]c1=O	ribH	enzyme kinetics		pH 7.0		kcat	0.00183 ± 0.000167 s⁻¹
CC[C@@H]1CN2CC[C@@]3(O)C(=Nc4cccc(OC)c43)[C@@H]2C[C@@H]1/C(=C\OC)C(=O)OC	Mu-type opioid receptor (OPRM1, Homo sapiens, UniProt P35372)	partial agonist				Emax	47%
O=C(N[C@@H]1CC[C@@]2(O)[C@H]3Cc4ccc(O)c5c4[C@@]2(CCN3CC2CC2)[C@H]1O5)c1cccc2ccoc12	Mu-type opioid receptor (Oprm1, Mus musculus, UniProt P42866)	agonist			reference: DAMGO	Emax	27.3%
C1C2C1C1C3C4C5C6CC6C4C14CNCC54C23 (centres unmarked)	Matrix protein 2	inhibitor		100 µM		inhibition	86 ± 1%
COc1cc(O)c2c(c1)/C=C/C[C@H](O)[C@H](O)C(=O)/C=C\C[C@H](C)OC2=O	AP2-associated protein kinase 1 (AAK1, Homo sapiens, UniProt Q2M2I8)			10 µM	reference: control	remaining binding	13%
Nc1c(SC[C@H](O)[C@H](O)[C@H](O)CO)[nH]c(=O)[nH]c1=O	ribH	enzyme kinetics		pH 7.0		kcat	0.00317 ± 0.000167 s⁻¹
CC(C)[C@@H](CN1CC[C@@](C)(c2cccc(C(N)=O)c2)[C@@H](C)C1)NC(=O)[C@H]1Cc2ccc(O)cc2CN1	Kappa-type opioid receptor (OPRK1, Homo sapiens, UniProt P41145)	antagonist			reference: Ke delta over Ke kappa	selectivity ratio	4000
CC(=N)NC12C3CCC4C3C3C(CCC31)C42	Matrix protein 2	inhibitor		100 µM		inhibition	9.3 ± 2.4%
O=C(OCC[18F])C1C2CCC(CC1c1ccc(/C=C\I)cc1)N2 (centres unmarked)	SERT	microPET	anaesthetised, medulla			time to peak uptake	85 min
NCC12C3CCC4C3C3C(CCC31)C42	Matrix protein 2	inhibitor		100 µM		inhibition	13 ± 1%
CN1CCN(c2nc3ccccc3nc2Cl)CC1	5-hydroxytryptamine receptor 3A (HTR3A, Homo sapiens, UniProt P46098)	5-HT response		concentration not given		recovery time from inhibition	~25 min
CSCC[C@H](NC(=O)[C@H](Cc1ccccc1)NC(=O)CNC(=O)[C@@H](C)NC(=O)[C@@H](N)Cc1ccc(O)cc1)C(=O)N1CCC[C@H]1C(=O)N[C@@H](CC(C)C)C(=O)N[C@@H](Cc1c[nH]c2ccccc12)C(=O)NCc1cc(C(F)(F)F)cc(C(F)(F)F)c1	Mu-type opioid receptor (Oprm1, Rattus norvegicus, UniProt P33535)	agonist				Emax	51 ± 3%
CC(C)C(=O)Nc1c(NC[C@H](O)[C@H](O)[C@H](O)CO)[nH]c(=O)[nH]c1=O	ribH	enzyme kinetics		pH 7.0		kcat	0.00183 ± 0.000167 s⁻¹

Some of these lines once more:
SMILES	target	assay	test system	conditions	how to read	quantity	value
Nc1c(SC[C@H](O)[C@H](O)[C@H](O)CO)[nH]c(=O)[nH]c1=O	ribH	enzyme kinetics		pH 7.0		kcat	0.00317 ± 0.000167 s⁻¹
